Measured values collected from several papers.
Protocols differ between the studies behind these lines. Several values in a cell are separate wells, animals, samples, runs or records. ± gives the spread as reported.

Compound | tested on | assay | test system | setting | scale | measurement | result
COc1ccccc1-c1ccncc1C(=O)Nc1nnc(OCc2ccc(Cl)cc2)s1 | RPE-1 BRCA1 WT parental |  |  | 0.125 µM, run 1 | relative to: untreated | colony survival | 94.4%
Fc1cccc(COc2ccc(Nc3ncnc4ccc(-c5cccc(-n6cccn6)c5)cc34)cc2Cl)c1 | Plasmodium falciparum | parasite growth, SYBR Green fluorescence | C235 (TM91C235), drug-resistant |  |  | EC50 | > 15 µM
CC(C)(C)C(=O)OCOP(=O)(OCOC(=O)C(C)(C)C)C1CCCN(O)C1=O (stereo not shown) | RPMI-8226 |  |  |  |  | GI50 | 0.308 µM
Cc1cc(C(=O)Nc2nc3cccc(C)c3n2[C@H]2CCCCN(C(=O)/C=C/CN(C)C)C2)ccn1 | Trypanosoma brucei | propidium iodide flow cytometry | bloodstream form | concentration not given, 3 h |  | cells in sub-G0 phase | 1.37%
CC(C)C[C@@H]1NC(=O)[C@@H](Cc2c[nH]c3ccccc23)NC(=O)[C@H](CCCNC(=N)N)NC(=O)[C@@H](CCC(=O)O)NC(=O)[C@H](CCC(N)=O)NC(=O)[C@@H](CCC(=O)O)NC(=O)[C@H](CCCNC(=N)N)NC(=O)[C@@H](Cc2c[nH]c3ccccc23)NC1=O |  | refers to: IL4 | LDLr-/- mouse on Western diet, liver | dose not given, 4 weeks |  | cytokine level | 13 ± 8.4 pg/g tissue
CCOC(=O)C1(CC=C(C)C)Oc2cc(F)ccc2N(CC=C(C)C)C1=O (stereo not shown) | Arabidopsis thaliana | stem length, petri dish germination | Col-0, 1/2 MS medium | 200 µg/mL, 7 days, 22 °C, dark |  | inhibition | 51.1%
COc1ccccc1-c1n[nH]c2nc(NC3CCN(C(=O)Cc4ccc(F)cc4F)CC3)ncc12 |  | bead binding, competition bead pull-down, refers to: LINJ.36.1700 | Leishmania donovani extract | 10 µM | relative to: vehicle | relative abundance | 0.88
CC[C@H](C)CCCCC(=O)N[C@@H](CCN)C(=O)N[C@H](C(=O)N[C@@H](CCN)C(=O)N[C@H]1CCNC(=O)[C@H]([C@@H](C)O)NC(=O)[C@H](CCN)NC(=O)[C@H](CCN)NC(=O)[C@H](CC(C)C)NC(=O)[C@@H](CC(C)C)NC(=O)[C@H](CCN)NC1=O)[C@@H](C)O | Escherichia coli | daily serial passaging | ATCC 8739 | highest sub-MIC, 30 days | relative to: initial MIC | MIC fold change | 1.32
COc1ccccc1-c1n[nH]c2nc(N[C@H]3CC[C@H](NS(=O)(=O)CC(C)C)CC3)ncc12 |  | bead binding, competition bead pull-down, refers to: LINJ.32.3470 | Leishmania donovani extract | 10 µM | relative to: vehicle | relative abundance | 0.9
Cc1cc(Oc2nc(N3CC[C@@H](c4ccncc4)C3)ncc2F)[nH]n1 | Mycobacterium tuberculosis | OD | H37Rv PurF CRISPRi knockdown | 0.01563 µM, together with: anhydrotetracycline low |  | normalised growth | 7% and 4% and 9%

Some of these lines once more:
Compound | tested on | assay | test system | setting | scale | measurement | result
COc1ccccc1-c1ccncc1C(=O)Nc1nnc(OCc2ccc(Cl)cc2)s1 | RPE-1 BRCA1 WT parental |  |  | 0.125 µM, run 1 | relative to: untreated | colony survival | 94.4%
